Published values from different studies.
Parts stem from different laboratories: compare values within a part only. Substitutions count along the parent as printed.

Series 1 — method: protein binding microarray; molecule type: double-stranded DNA, one strand shown; medium: in vitro; tested at: not given; relative to: not given; direction: higher = stronger binding; endpoint: E-score
Target: Histone acetyltransferase KAT6A, both winged helices, GST fusion (KAT6A, Homo sapiens, UniProt Q92794, residues 1-181)
Setting: 8-mer, flanks averaged, mean of 2 arrays, mostly near background
Residues (chain): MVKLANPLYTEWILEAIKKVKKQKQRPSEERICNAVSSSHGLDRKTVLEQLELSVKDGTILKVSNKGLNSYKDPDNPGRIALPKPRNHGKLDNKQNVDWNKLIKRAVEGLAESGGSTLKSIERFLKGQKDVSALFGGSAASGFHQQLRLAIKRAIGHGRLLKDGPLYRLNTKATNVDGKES
AATAAACT: 0.101
ACGCGGCG: 0.353
TCAAAGGA: -0.113
AAGTGGGG: -0.227
GCAGTCGA: 0.0728
ATAGACGG: 0.0924
CGATTCAA: -0.0106
ATAACAGG: -0.132
GCACAAAC: -0.0872
ACACCCGC: 0.196
CCGCGGTA: 0.383
CTTGTGGA: -0.141
AAAAGGAG: -0.0803
TATCTACA: -0.0534
AAGCCCCA: -0.341
CCCACCCC: 0.0568
AATTAATA: -0.0544
CTGACTCC: -0.0783
GGAGGCTA: 0.00303
GCACGGGC: 0.212
ACGTCTAA: 0.00152
ATTATTCG: -0.0589
GAAACACA: 0.167
AGACCGAG: -0.0758
GTTGTTAA: 0.0211

Series 2 — target: CCND1, cyclin fold, Cln2 fusion (human); method: yeast growth competition, sequencing; medium: yeast; setting: weak parent motif; relative to: not given; direction: higher = stronger binding; endpoint: normalised enrichment score
Starting sequence: TICRR docking peptide (human); TKVRRNLFNQELL; partner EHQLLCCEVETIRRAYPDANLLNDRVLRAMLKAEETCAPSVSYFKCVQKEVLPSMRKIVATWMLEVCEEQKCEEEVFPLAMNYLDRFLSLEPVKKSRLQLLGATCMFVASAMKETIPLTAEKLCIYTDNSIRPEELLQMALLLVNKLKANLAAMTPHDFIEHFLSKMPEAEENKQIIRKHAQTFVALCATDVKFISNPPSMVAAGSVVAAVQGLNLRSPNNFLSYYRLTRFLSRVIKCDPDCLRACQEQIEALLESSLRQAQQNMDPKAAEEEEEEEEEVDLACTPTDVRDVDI
TKARRNLFNQELL [V3A]: -0.668
TKVRRNLLNQELL [F8L]: 0.522
TKVRRNLFNQALL [E11A]: 0.712
TAVRRNLFNQELL [K2A]: 1.27
TKVRANLFNQELL [R5A]: 0.271
TKVRRALFNQELL [N6A]: 0.226
AKVRRNLFNQELL [T1A]: 0.337

Series 3 — method: RNA Bind-n-Seq; molecule type: RNA; medium: in vitro; tested at: 365 nM; relative to: no-protein control; direction: higher = stronger binding; endpoint: RBNS enrichment (R)
Target: RNA binding protein fox-1 homolog 2, RRM domain, GST-SBP tag (RBFOX2, Homo sapiens, UniProt O43251-10, residues 100-194)
Setting: natural RNA segment, single round, ends assumed
Constant ends, left off below: GGGAGUUCUACAGUCCGACGAUC … UGGAAUUCUCGGGUGCCAA
Residues (chain): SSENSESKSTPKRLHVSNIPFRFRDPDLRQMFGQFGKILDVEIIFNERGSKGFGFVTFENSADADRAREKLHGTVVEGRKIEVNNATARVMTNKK
UAUUACCCUUUCACUCUUCUCACAGGACAUGUACCCAAAUAUGGUACUUAUUUAUGUAGUCACUGUGUUUCUGGAAUUUUAUGUUAAUAAAAUUUUAAUUUAAAAAGGCU: 0.962
AGGGUAAACCAGUAGGGAAUACAGUACAAUCCCAACCCUACUGGGAGGGGCGGGAGGGAGGUGUUGCCGUCACUGUAUUAAGUCGAUGUUGGGAAACGUUUUAACAUCUG: 0.521
CUUUGGGGAUAUAUGGUACGUUGUUUUUGUUUUUUAGACUUAAUAAAGGACAACACGAGCUGGUCUUGUGUUGCUGGUUCCUAUUCAGUAUUUCCUGGGGAUUGUUUGCU: 0.617
AUUGGGUGUGAGAAAAGACUGUGUCUUGAAAGAAUUAUCAAAGCUGAUACAGCACAUAUACAGAAUUAGCCAAAUGGUAUAAGACAAUAGAAAAAGGCUGUGGAUUCUUU: 0.555
CGCAUGGUGAUCCUCCCCGCUCAGCCUCCUGAGGACUGGGAUUAAAGGUGUGUGCCUCCAUACUCUUGACACCAGUUUUCAGUUGAGGAUUGUUGAGCAUAGCUGGCUUG: 1.23
CAGGUUCUACCCGGGCGCCUCUGUGUGUUCUACAGCACAGAGGACUUCGGGGAGAUUGAUUGGAUCAGAGCCAUUGGCUGGCUCUGGCUCUGCUUUUCUGCCUUCAGUUA: 0.234
CACUGGUCGUCAGGGAGCUCCUCCCCUUGGCCCCCAGCCUGUGCCAGCCCUGGCCCGGCUGCCACACCUCUGUUUCCUAGGCUGGGGACCCAGCUUGUCUCUCCUUGUUU: 0.903
AGGAGGGAUGACUCCUGACCACACUGUUGAAGGCUUGCUCUUGUCAAAUACUCUGUCUGCUAUGGAAAGUUCCAGUGUGCUGACUGGUCUGUGAUUUUGUACCUUGUGAA: 0.71
UCAGCCCAUGCCCAGCUGUCAGGAGAGAGGUGCAGGGAGGAAGGCCUUGUGCUGGGACAACCUCUCUCUUGCCUUACCUCAGAGAGGGACUAUGCCCUGACCCCUCCUUU: 0.517
CAGCCUGUCCAUCAAAACUUGUCCUGUACCCAGGACAGUACCAGCUUCCUGUCCCCCGACCCUAACAGGUGCCUUAAAAGGCCCUCUCCCACCCAAGGUGGGGGGGCCAG: 0.229
ACAUGCCCCACUCACACUAAAUCCCAGACCACACUGCCUGUUUCCCUUCUGAGGCCACAGGCAGGGCAGCUUAGUUCACCGCAGUCCGUACCUUGGAUAAGGGGCCUCAC: 0.365
GCACCGAAAAACUAAAAAUAAUGGGCGCUUUGGAGAAGAGUGUGGAGUCAUUCUCAUUGAAUUAUAAAAGCCAGCAGGCUUCAAACUAGGGGACAAAGCAAAAAGUGAUG: 0.46

Series 4 — method: RNA Bind-n-Seq; molecule type: RNA; medium: in vitro; tested at: not given; relative to: input RNA pool; direction: higher = stronger binding; endpoint: bound/input enrichment
Target: RING finger protein unkempt homolog, zinc fingers 1-6, GST-SBP tag (UNK, Homo sapiens, UniProt Q9C0B0, residues 30-357)
Chain of UniProt Q9C0B0 (30-357, looked up): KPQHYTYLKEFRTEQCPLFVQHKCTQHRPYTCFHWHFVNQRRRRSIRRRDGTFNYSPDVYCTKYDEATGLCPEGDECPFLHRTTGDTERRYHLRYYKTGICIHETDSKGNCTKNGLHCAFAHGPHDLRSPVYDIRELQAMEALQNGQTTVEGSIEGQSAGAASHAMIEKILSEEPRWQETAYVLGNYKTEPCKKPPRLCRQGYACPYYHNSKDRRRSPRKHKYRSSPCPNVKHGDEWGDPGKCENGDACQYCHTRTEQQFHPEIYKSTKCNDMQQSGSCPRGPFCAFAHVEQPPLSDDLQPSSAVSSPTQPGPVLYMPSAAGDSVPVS
Setting: RNA with constant flanks, human-mouse chimeric sites, ends assumed
Constant ends, left off below: GGGAGUUCUACAGUCCGACGAUC … CAACAGAGGAUUGAGCAUCA
UAAGUCCAUUUGUAAGCCUUCGCUCAUUAUAUUUUAAAUUCUGGACCAAUAGUGUUUGUUUCCUGAUUAUUGUAUCCAAUACUUUGCCUAGUAUGUAACUCACUCUUACUGAUAAUAAAA: 6.62 ratio
UGUGCAUUAUGAUGCUUAGAUGGUUUUUGCAAAAGCAGAAAUCGCUGCAAGGUAAUCACAAUAGAUAAAAGUGGUAUUUUAAACCUUUGAAAUAAAUGGAUGUAACUGUACCUUGGUACA: 0.66 ratio
UUUGUAAUAUCUGUAAAAAAGGUUUCUCCCCUACUGUCAAAAAAUAUGCAUGUAUAGUAAUUAGGACUUCAUUCCUCCAUGUUUUCUUCCCUUAUCUUACUGUCAUUGUCCUUAAACCUU: 1.03 ratio
GAUGAUAAUCACACAAACAAGUCACUGUUACAUGACCAGAGUUGUACUUCUUUUCCUGAUUAAUAUUCUCCCUGGAACCACUGGUCAAGGGGAAUCAAGACGACAAGAACCUGGGGACUU: 0.213 ratio
CGGAGCCCCUCCCUCUCACAGGCCCAAGAUAUAACCCACCAGUGCCUUUUGUCUUCCUGUCAGCUCUGUCAAUCACGCCUGUCCUCUCACGCCCACACCAAGUGCCCCCACCCCUAAGGG: 0.407 ratio
GGGACUGAUUCAUCCCAAGGACAGGCCACCCCAUUUGGUGUUUGGAAUGAUGACAGUAUGGAAGGGCCUAGUCAAAAUUUUGAAGCUGAGUCAAUUCAGGAUGCCAUGAGUAUGGAAGAG: 0.215 ratio
CCAAGUGAUUCAUCCCAAGGACAGGCCACCCCAUUUGAUGCCUGGACUGAUGACAGUAUGGAAGGGCCUAGUCAAAAUGUUGAAGCUGAGUCAAUUCAAGAUAAUGCGAGUAUGGAAGAG: 0.337 ratio
GUAUACGGUUAUCGAGGAAAGGACUGUAGAGCGAAUGUUUACCUUCUUCCCACAGGGGAGAUAGUUUAUUUUAUCGCCUCAGUGGUAGUCCUGUUUAAUUAUGAGGAGAGGACUCAGCGA: 0.345 ratio
UACUCAACUUUCUUGCCACAUUUUGAAUUCCAAGACAUUAUUCCUCCAGAUGACUUCCUAACGAGUGAUGAAGAAGUAGAUUUGGUUUUAUUUGGAACUAUGAGAGGUCAUGUGGUUGGA: 0.262 ratio
AACGUGGAGUUGAGUUCCUUGGCCCGGCUUCCCAGCUUGAAUAAACUCCGGAAGUUGGAACUUAGUGAUAAUAUAAUUUCUGGAGGCUUGGAAGUCCUGGCAGAGAAAUGUCCAAAUCUU: 5.64 ratio
GAUAGGAAAAGCUUGUUGGAGACCCGCUUGCAUGUCACUGGUAGAGACCUGAGGUGUCAAAUAGCUGAAACUUUCGGACUUCAAGAAAAUUACAUCAAGAUCGUAAUAAAUAAGAAACAG: 0.527 ratio

Series 5 — method: DHFR PCA, deep sequencing; medium: yeast; added: (+)-ABA 0 µM; relative to: wild-type fitted maximum; direction: higher = stronger binding; endpoint: relative binding score
Target: ABI1, truncated, D143A, DHFR fusion (Arabidopsis thaliana)
Setting: methotrexate growth selection, single substitutions
Starting sequence: PYL1, truncated, DHFR fusion (Arabidopsis thaliana); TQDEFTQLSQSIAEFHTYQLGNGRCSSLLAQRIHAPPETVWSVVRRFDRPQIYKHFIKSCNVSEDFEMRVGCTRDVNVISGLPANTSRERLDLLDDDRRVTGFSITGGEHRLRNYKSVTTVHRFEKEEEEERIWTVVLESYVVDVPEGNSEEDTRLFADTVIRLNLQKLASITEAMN
E174R: -2.94%
L156T: 13.8%
K58N: 0.953%
L94F: 30.6%
F56Y: -2.1%
H55Q: 22.9%
A35W: -0.217%
F47Y: -2.87%
R99Q: 16.5%
V142T: -1.25%
E147V: 9.63%
L94P: -5.31%
S117K: -11.4%
T101H: -3.01%
R90V: 10.5%
Q7N: 15.5%
R163P: 6.77%
E130V: 20.7%

Single results of other studies
PhoQ, residues 284 288 289 292 302 303 TNSAEL — fold induction (PhoP, residues 12 14 15 18 19 AQCLL (Escherichia coli, UniProt P23836); Sort-seq, measured: YFP reporter; E. coli; PhoQ-PhoP variant library, added: 10 µM Mg2+; relative to: high Mg2+ state, higher = stronger signaling): 2.59
